Experimental data from different studies.
Parts stem from different laboratories: compare values within a part only. Changes are numbered by the printed parent chain.

Study 1 — technique: RNA Bind-n-Seq; molecule type: RNA; matrix: in vitro; tested at: 365 nM; baseline: no-protein control; direction: higher = stronger binding
Target: RNA binding protein fox-1 homolog 2, RRM domain, GST-SBP tag (RBFOX2, Homo sapiens, UniProt O43251-10, residues 100-194)
Notes: natural RNA segment, single round, ends assumed
Shared flanks, not repeated: GGGAGUUCUACAGUCCGACGAUC … UGGAAUUCUCGGGUGCCAA
Construct (chain): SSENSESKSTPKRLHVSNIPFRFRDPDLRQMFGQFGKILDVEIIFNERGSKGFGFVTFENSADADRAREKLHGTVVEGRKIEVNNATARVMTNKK
Strand | RBNS enrichment (R)
ACUGCUGUUCUGGAGUAGGGUUCCAUCUCCCAUUUCUUCCAGCUCUGCCAAGUUGGCCCUCCCUGCUCUCGAGUGUUCCUUUCUUGAGACCUCAGGGUGCCCAGGUCCUG | 0.404
UUCUUGGUGAAACAAAAGUUUUAAAAGUAGUUUUAACAACUUUACACUGGAAUGAUUUAGCUUUGUUAUUGCAUGUCUUGUGUUAAGUGUUUUGUAUAUGAUAUUGCAGU | 1.15
CAGCGAGCCGGAGGUGGCCUCCCAGCUGGCUCCCCAUUCGCUCUCCACAACUGCAUUCACUAUCACUUCUUGAGAUGGGACAGAUAUCCGUGCGUCAGUGGCUGGCAGAA | 0.522
CUUGGGCGAGUGUGGCGCCAACAAGCCUGAGAUUCAAACGCUUUCCAUUUAAGCAAACCUCUUCUUGUUUUUAUACUUCAUUUUGUUUCCCAUGUUGAUGAAAGUACUGC | 0.343
CUAGCAAGCGACCGCUGUUGGCCGAGCUUCACUCAUGACUGCAGCGUGCAUGUAUCUCUUCACCAUGUCUUCUCUCACCUUCACUAAGGAGUCACCAGAUCAUCUGGCUC | 2.29
GCACUUAGGGGAGAUGACAUUUGCUUUGGGCAGAGGCAGCUAGCCAGGACACAUUUCCACUAUAAUUUUACAAAGUUAAAUUUAUAAGCUAGCAUUAAGUAAAGUGAAGU | 0.676
CUGCCGUCCAAUGCUGGGAUUGAAGGUGUGCACAGCCACACCAGCUUAAGGUUUUGUUAAAGAAGACGAUAGGUAUGGCUGGAUUAUAUAGUCUUCAGGUUCACAUGAAC | 0.394
UCUACUCGGGAGGCUGAGGCAGGAGAAUUACUUGAACCCAGGAGGCAGAGGCUGCAGUGAGCCGAGAUGGCACCACUGCACUCCAGCUUGUUGACAGAAUGAGACCCUGU | 0.281
UGUUGCCUUUUCAUUGAUUAGAGACAAUAAAUAUCUUGUAACUUCCUAACCAGAUCUGAGCUGUGCUCACAAUAAUAAUAAUGAAAUCAGAUUCUUUGAUGCUGGACUCA | 0.314
AAGUGGAUCUUAUCAUUACUGUGAGUGUGAGACACACACACAUACACAACACACUGUAUGUGCAUACAUGAAACACAAACAGCUUUUUACUGAACAGAAUUAUAGACAUU | 0.438
GGGAGCACCUUUUAUCCCAAAGUGCUUUAUAAAUUGAGUGGACUGAUAUAUAUCACACCCAGGUAUCACUGUGCUGUCCUUUGCUGUCAGAUUUAGAAAUGUUUUUAAGA | 0.793
CCAACUCAGAGCCUGCUGAGCCCAUGCCCAGCCGCAGCAUGCCAGCUGAGCCCCCGGCCUCCCCAGGAACAUGCACGUUCACCCCGCUUCCUCGUGGGUGGCUUUUUUUU | 30.7

Study 2 — target: CCNA2, cyclin fold, Cln2 fusion (human); technique: yeast growth competition, sequencing; matrix: yeast; notes: strong parent motif; baseline: not given; direction: higher = stronger binding
Starting sequence: WEE1 docking peptide (human); HKTFRKLRLFDTP
Substitution | normalised enrichment score
HKTFRKLRYFDTP [L9Y] | 2.39
HITFRKLRLFDTP [K2I] | 0.952
HKTFRKLRLFDTK [P13K] | 1.67
HKTFRYLRLFDTP [K6Y] | 2.44
MKTFRKLRLFDTP [H1M] | 0.63
HKTFRKLRRFDTP [L9R] | 0.669
HKTFQKLRLFDTP [R5Q] | 1.65
HKTFDKLRLFDTP [R5D] | 1.32
HKTFRKLRCFDTP [L9C] | 1.02
HKTRRKLRLFDTP [F4R] | 2.57
HHTFRKLRLFDTP [K2H] | 1.03
HKTFRKLRWFDTP [L9W] | 1.7
TKTFRKLRLFDTP [H1T] | 1.64
HKTFRTLRLFDTP [K6T] | 0.72
HATFRKLRLFDTP [K2A] | 1.41
HKTFRKLHLFDTP [R8H] | 1.45
HKTFRKLRFFDTP [L9F] | 2.33
HKTGRKLRLFDTP [F4G] | 1.77
HKTFRKPRLFDTP [L7P] | 1.26
HCTFRKLRLFDTP [K2C] | 1.26
HFTFRKLRLFDTP [K2F] | 1.69
HKTFRKIRLFDTP [L7I] | 2.34
HKTTRKLRLFDTP [F4T] | 1.67
HKTFRKLWLFDTP [R8W] | 2.87
HKTFRKLRLMDTP [F10M] | 1.54

Study 3 — technique: protein-binding microarray; molecule type: double-stranded DNA, one strand shown; matrix: in vitro; tested at: 2540 nM top; notes: 60-bp whole probe; added: salmon DNA 0.4 mg/ml; baseline: random background probes; direction: higher = stronger binding; shared flanks, not repeated: GCCTAGCAC … GTCTTGATTCGCTTGACGCTGCTG
Target: Interferon regulatory factor 3, full length, phosphomimetic (IRF3, Homo sapiens, UniProt Q14653, residues 1-427, S386D/S396D/S398D/S402D/T404D/S405D)
Sequence of UniProt Q14653 (whole entry, unmodified, looked up): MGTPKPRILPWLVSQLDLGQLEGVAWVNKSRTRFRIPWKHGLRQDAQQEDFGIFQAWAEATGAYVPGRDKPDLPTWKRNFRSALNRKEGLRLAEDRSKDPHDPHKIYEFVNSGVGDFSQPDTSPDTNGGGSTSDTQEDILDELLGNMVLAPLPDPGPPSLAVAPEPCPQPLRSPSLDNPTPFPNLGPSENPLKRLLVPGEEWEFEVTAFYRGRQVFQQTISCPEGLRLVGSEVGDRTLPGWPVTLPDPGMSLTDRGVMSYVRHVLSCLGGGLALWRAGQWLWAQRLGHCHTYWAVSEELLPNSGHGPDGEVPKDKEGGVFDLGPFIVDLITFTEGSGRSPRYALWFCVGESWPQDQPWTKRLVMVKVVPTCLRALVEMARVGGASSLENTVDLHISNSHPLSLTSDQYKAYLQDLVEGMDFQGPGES
Strand | fitted relative affinity [z-score]
TGTGGGCGTAGGCCCGGAGCGTGCTAG | -1.42
GACGGTCTCCTTATCCTCACGTGCTAG | 2.48
TCTTTTATGGTATTTTTTTGGTGCTAG | 0.743
TTCGGACTGGACTATCGGTTAGTGCTA | -0.179
GACGGTCTCGGTTTCGGGCCGTGCTAG | 3.29
TCATCTTCTCCTCTAGGACTGTGCTAG | 1.13
TTCGGTATCGGGACTGGGTTAGTGCTA | 2.36
TTAGGTTTCTGGTTTCGGTTAGTGCTA | 4.92
GGCGGTTTCGGGTTTCGGGACGTGCTA | 5.99
AATTGTCTCTGTCCCTGTTTGTGCTAG | 0.526
TTAGGTCTCGGATTCGGTTAGTGCTAG | 2.11
TCACTGGTCACTCTCTGACTGTGCTAG | -0.14
GGGCATTTTTTTATCAATCAGTGCTAG | 0.178
TTAGGTATCGGTATCGGTTCGTGCTAG | 6.1
TTAGGACTGGGGTATCGGTAAGTGCTA | -0.296
TTAGGTATCGACTATCGGATAGTGCTA | 0.591
TTACTTCCCAATTGTCTTTTCGTGCTA | 2.54
AGCTGTTTCTGTGTCACAGAGTGCTAG | 3.2
TTAGGACTGGCCTATCGGTTAGTGCTA | -0.801
TTTACTTTCTATGTCTGTTTGTGCTAG | 4.81
TCAAGAGTAGTTTTTCAAACTGTGCTA | 0.156
TTAGATCTCAATCTCGATTAGTGCTAG | 0.805
TTAGGTATCCCTATCCTTTAGTGCTAG | 4.49
GACGATATCAGTTTCGAGTCGTGCTAG | 4.13
TACGGTATCGGGACTGGGGACGTGCTA | 1.4

Study 4 — technique: universal PBM; molecule type: double-stranded DNA, one strand shown; matrix: in vitro; tested at: 600 nM; direction: higher = stronger binding
Target: Sal-like protein 4, full length isoform A (SALL4, Homo sapiens, UniProt Q9UJQ4, residues 1-1053)
Sequence of UniProt Q9UJQ4 (whole entry, looked up): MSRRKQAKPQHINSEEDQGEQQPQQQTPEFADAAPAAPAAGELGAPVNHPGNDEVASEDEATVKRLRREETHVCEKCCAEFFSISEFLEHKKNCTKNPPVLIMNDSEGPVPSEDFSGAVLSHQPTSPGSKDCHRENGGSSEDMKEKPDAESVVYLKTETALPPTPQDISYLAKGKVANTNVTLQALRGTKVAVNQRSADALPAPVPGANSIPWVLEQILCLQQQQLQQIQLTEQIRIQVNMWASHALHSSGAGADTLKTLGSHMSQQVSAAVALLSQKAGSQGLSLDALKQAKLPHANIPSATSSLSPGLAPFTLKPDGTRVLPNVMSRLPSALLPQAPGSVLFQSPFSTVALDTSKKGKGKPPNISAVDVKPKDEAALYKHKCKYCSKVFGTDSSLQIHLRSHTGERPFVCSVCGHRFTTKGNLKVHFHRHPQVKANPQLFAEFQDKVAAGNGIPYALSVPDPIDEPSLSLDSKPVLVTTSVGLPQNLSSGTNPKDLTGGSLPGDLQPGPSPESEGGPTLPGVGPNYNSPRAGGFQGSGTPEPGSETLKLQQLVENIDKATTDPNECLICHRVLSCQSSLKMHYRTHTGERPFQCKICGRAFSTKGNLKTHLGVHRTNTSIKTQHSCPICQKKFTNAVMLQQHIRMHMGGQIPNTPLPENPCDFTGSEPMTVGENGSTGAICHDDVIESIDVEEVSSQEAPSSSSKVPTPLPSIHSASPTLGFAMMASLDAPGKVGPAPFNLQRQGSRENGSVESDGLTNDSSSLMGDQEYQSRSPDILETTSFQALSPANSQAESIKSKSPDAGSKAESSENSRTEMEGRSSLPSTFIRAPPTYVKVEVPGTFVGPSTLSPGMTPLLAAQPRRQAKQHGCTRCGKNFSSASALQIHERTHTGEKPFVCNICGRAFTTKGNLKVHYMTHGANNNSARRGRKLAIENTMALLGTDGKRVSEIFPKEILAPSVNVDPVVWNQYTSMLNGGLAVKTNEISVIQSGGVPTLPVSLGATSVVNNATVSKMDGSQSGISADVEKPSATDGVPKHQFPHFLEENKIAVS
Notes: 8-mer, flanks averaged, mean of replicates
Strand | E-score
CGTAGAAC | -0.158
ACCGCCGG | -0.373
CGAATTAG | 0.0523
ACCCGAAA | 0.0135
GGAGTACC | -0.236
GACGCAGA | -0.189
GACCAACA | 0.0544
CTCTACTA | 0.18
AGTTACCA | 0.0574
AACGCGAA | -0.000925
ACTTTGCA | 0.106
AGAGACCT | -0.114
TCTGAAAA | 0.136
CCCTGAGC | -0.298
GCAATTCC | -0.0114
CTTAGAGC | -0.0272
CACGCCGA | -0.317
AGGTATCA | 0.081
TGTCGCAA | 0.0553
ACAGCCGA | -0.153
CCCATAAC | 0.161
GAGATAAC | 0.104
CATTCGCC | -0.215
CCACCATC | -0.23
CAAATCAA | 0.246

Study 5 — technique: protein binding microarray; molecule type: double-stranded DNA, one strand shown; matrix: in vitro; tested at: not given; baseline: not given; direction: higher = stronger binding
Target: Histone acetyltransferase KAT6A, winged helix 1, GST fusion (KAT6A, Homo sapiens, UniProt Q92794, residues 1-85)
Notes: 8-mer, flanks averaged, mean of 2 arrays, mostly near background
Construct (chain): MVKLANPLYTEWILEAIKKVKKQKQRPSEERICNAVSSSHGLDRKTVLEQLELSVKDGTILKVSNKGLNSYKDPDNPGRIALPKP
Strand | E-score
ACTTCATG | -0.0349
ACATCATG | -0.0177
AACTGGAT | -0.298
ACATTGTC | -0.00971
ATGAGCAG | -0.255
ATGCAGGC | -0.134
AACTAGAG | 0.053
AGGATGTC | -0.136
AAGCAGAT | -0.248
CAGTTTCG | -0.0673
CCAAACAG | -0.158
CGAAGGCC | 0.0166
ACCCTGCG | -0.0752
ACTGGAAA | -0.145
GATATTCA | -0.103
AGATCAAT | -0.208
AAATAAAG | -0.246
AGACCTTA | -0.0581

Study 6 — technique: RNA Bind-n-Seq; molecule type: RNA; matrix: in vitro; tested at: 200 nM; notes: whole 134-nt RNA, ends assumed; added: 150 mM KCl; baseline: input library; direction: higher = stronger binding
Target: Ras GTPase-activating protein-binding protein 1, full length (G3BP1, Homo sapiens, UniProt Q13283)
Sequence of UniProt Q13283 (whole entry, looked up): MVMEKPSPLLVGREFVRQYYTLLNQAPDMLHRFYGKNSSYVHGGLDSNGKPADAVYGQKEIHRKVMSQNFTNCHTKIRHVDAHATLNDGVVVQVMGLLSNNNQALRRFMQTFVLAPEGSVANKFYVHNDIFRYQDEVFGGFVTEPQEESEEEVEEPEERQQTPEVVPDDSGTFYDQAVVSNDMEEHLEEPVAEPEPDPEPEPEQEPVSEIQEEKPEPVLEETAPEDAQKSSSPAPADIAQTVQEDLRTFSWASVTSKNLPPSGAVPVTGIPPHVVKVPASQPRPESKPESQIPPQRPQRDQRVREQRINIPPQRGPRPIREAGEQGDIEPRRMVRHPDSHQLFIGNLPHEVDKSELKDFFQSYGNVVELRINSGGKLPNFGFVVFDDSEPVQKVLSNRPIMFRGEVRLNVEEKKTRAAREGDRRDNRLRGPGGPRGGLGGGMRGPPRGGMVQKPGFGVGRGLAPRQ
Shared flanks, not repeated: GGGAGUUCUACAGUCCGACGAUC … UGGAAUUCUCGGGUGUCAAGG
Strand | log2 enrichment
GUCCUGUGCUACACAUCGUAUGUACCGAAUCGGGCCCCCGGGGCCCCCGGGGCCCCCGGAAAGUAUUAUGUUACGCCGUUCGGAUCUGCA | 0.374
UCCUGUGCUACACAUCGUAUGUACCGAAUCGGGCCCCCCGGCCCCCCGGGGCCCCCCGGAAAGUAUUAUGUUACGCCGUUCGGAUCUGCA | 0.0641
CCUGUGCUACACAUCGUAUGUACCGAAUCGGGGAAAAAAGGAAAAAAGGGGAAAAAAGGGGAAAGUAUUAUGUUACGCCGUUCGGAUCUG | -0.403
UCAAGUCCUGUGCUACACAUCGUAUGUACCGAAUCGGGAAAGGGAAAGGAAAGGGAAAGUAUUAUGUUACGCCGUUCGGAUCUGCACUUC | -0.717
UCCUGUGCUACACAUCGUAUGUACCGAAUCGGCCCCCCGGGGCCCCCCGGGCCCCCCGGGAAAGUAUUAUGUUACGCCGUUCGGAUCUGC | -0.8
AAGUCCUGUGCUACACAUCGUAUGUACCGAAUCGGGGAAAGGGGUUUGGGGUGGGGAAAGUAUUAUGUUACGCCGUUCGGAUCUGCACUU | 0.983
UUUUCAAGGGGGCCCCAACUGGGGCCGCCUUGUAGCCUUCUUUGUCUUUGGGGCUGCACUGUGUGCUGAGAGUGUCAACAAGGAGAUGGA | -1.04
AGUCCUGUGCUACACAUCGUAUGUACCGAAUCGGGGUGGGGUGGGGUUUUUUUGGGGAAAGUAUUAUGUUACGCCGUUCGGAUCUGCACU | 0.607
GCAGGAAGUAAAAACAAAUGGAAAUGCUUCGGAUAAUGGCAGGGGUGGGGGUUGCUAAGGAAAGGGUGGGAUGGGAGUGGGUAAAGAGUU | 0.793
CUCAAGUCCUGUGCUACACAUCGUAUGUACCGAAUCGGGGCCGGGGCCGGCCGGAAAGUAUUAUGUUACGCCGUUCGGAUCUGCACUUCC | -0.513
UGGGAGGUGGAUUUUGUUAAUUUUUUUAGCUCAUUUCCAGGGGUGGGAAUUUUUUUUUAAUAUGUGUCAUGAAUAAAGUUGUUUUUGAAA | 0.0843
CAAGUCCUGUGCUACACAUCGUAUGUACCGAAUCGGGAAAGGGAAAGGAAAGGGGAAAGUAUUAUGUUACGCCGUUCGGAUCUGCACUUC | 0.17
CUGUGCUACACAUCGUAUGUACCGAAUCGGGGAAAAAAAGGGAAAAAAAGGGAAAAAAAGGAAAGUAUUAUGUUACGCCGUUCGGAUCUG | -0.664
UAACUUUAGAGGAGGAUCUGAUGGAUAUGGCAGUGGACGUGGAUUUGGGGAUGGCUAUAAUAGGUAUGGAGGAGGACCUGGAGGUGGCAA | 0.311

A few entries again (study 4):
Strand | E-score
ACCCGAAA | 0.0135
GGAGTACC | -0.236
GACGCAGA | -0.189
GACCAACA | 0.0544
CTCTACTA | 0.18
AGTTACCA | 0.0574
